Measured values of several laboratories.
Numbered parts are unrelated; each lists some results of a single study. Values joined by “and” are separate records of one study, mostly repeats; a detail may differ.
Chain of UniProt P07333 (whole entry, looked up): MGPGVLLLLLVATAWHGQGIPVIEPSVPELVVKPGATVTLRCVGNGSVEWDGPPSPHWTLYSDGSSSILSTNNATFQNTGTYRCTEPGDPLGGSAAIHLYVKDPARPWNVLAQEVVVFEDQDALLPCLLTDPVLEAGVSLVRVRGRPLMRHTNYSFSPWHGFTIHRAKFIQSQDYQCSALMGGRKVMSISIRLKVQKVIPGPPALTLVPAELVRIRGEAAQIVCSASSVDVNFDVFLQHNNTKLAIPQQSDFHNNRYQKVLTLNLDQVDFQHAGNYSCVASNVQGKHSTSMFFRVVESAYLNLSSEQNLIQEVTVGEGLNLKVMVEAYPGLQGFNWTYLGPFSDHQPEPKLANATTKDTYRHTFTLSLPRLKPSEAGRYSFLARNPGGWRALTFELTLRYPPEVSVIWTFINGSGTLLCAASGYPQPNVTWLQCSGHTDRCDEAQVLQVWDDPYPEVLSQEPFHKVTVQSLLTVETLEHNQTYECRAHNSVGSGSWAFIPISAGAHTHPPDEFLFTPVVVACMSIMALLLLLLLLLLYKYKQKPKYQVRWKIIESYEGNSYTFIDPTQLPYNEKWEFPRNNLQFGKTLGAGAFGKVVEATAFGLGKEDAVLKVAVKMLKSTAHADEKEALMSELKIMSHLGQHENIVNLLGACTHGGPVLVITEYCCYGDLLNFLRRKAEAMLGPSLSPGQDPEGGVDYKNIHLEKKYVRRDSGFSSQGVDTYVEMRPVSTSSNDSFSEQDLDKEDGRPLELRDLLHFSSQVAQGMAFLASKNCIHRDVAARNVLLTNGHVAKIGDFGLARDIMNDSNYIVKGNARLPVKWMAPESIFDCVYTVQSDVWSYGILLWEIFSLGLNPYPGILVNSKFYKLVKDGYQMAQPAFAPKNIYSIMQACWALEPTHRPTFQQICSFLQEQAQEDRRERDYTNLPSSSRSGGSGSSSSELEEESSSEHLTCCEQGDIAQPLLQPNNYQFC
Chain of UniProt P16234 (whole entry, looked up): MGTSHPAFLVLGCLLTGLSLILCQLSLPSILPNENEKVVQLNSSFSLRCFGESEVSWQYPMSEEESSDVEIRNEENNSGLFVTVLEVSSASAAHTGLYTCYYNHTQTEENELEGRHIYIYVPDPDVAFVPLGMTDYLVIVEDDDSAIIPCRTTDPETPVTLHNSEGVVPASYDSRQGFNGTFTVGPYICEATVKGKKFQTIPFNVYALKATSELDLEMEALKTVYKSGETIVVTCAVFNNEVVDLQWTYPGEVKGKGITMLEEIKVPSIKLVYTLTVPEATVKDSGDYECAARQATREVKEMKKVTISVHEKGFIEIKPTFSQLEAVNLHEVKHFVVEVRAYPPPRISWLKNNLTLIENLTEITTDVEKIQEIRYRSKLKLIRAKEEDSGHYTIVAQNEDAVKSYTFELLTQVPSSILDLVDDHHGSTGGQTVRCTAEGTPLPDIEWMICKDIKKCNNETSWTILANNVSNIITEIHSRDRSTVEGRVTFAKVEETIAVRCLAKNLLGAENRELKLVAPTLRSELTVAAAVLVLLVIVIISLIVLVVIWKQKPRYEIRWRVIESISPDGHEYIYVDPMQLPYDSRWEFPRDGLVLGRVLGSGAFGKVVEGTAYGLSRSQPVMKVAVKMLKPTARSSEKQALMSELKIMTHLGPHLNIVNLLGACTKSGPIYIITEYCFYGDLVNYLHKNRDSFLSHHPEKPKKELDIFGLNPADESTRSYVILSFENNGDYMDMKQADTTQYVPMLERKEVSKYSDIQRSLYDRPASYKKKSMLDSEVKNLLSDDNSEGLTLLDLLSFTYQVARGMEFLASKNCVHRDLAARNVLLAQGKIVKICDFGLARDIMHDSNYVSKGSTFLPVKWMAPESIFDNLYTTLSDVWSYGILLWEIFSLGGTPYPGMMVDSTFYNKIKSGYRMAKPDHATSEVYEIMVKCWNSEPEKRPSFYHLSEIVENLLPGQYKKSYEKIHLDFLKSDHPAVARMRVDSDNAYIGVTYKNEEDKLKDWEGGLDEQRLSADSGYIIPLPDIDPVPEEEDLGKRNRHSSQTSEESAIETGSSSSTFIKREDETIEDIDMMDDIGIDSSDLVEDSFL
Chain of UniProt Q9UHD2 (whole entry, looked up): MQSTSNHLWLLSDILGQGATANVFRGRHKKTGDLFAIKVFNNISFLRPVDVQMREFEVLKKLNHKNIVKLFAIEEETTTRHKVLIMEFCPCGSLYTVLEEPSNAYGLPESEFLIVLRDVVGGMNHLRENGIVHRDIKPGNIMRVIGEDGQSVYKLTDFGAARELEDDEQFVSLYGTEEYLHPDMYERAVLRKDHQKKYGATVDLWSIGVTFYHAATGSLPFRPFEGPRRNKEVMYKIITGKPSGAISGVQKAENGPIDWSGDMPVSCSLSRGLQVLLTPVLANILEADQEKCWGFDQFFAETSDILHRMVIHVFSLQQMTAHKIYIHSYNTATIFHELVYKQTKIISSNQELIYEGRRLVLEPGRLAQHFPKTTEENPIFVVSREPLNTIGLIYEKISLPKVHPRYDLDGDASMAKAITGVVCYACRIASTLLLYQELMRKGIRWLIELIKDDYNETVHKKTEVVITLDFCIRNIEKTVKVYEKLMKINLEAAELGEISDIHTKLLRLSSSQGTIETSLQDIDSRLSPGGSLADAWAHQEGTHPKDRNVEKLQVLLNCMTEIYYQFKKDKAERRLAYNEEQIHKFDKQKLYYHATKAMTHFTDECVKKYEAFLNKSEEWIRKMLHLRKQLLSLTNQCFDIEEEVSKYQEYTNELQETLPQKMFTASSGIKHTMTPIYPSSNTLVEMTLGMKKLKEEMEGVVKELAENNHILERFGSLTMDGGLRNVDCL
Chain of UniProt Q13555 (whole entry, looked up): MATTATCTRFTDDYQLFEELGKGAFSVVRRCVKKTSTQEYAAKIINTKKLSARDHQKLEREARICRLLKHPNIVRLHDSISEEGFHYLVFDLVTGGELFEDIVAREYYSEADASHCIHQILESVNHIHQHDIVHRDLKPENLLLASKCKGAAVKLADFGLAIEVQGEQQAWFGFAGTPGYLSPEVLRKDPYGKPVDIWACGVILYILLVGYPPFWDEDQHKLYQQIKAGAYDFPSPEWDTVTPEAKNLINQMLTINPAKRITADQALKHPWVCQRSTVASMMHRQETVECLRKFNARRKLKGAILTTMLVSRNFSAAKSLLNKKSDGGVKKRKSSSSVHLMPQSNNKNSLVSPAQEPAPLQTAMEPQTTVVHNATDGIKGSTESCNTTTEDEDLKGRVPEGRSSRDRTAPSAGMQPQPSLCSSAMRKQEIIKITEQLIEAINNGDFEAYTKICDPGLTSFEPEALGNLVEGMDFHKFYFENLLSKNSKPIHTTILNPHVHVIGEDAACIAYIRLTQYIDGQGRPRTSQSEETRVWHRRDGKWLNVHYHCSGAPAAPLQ
Chain of UniProt P32298 (whole entry, looked up): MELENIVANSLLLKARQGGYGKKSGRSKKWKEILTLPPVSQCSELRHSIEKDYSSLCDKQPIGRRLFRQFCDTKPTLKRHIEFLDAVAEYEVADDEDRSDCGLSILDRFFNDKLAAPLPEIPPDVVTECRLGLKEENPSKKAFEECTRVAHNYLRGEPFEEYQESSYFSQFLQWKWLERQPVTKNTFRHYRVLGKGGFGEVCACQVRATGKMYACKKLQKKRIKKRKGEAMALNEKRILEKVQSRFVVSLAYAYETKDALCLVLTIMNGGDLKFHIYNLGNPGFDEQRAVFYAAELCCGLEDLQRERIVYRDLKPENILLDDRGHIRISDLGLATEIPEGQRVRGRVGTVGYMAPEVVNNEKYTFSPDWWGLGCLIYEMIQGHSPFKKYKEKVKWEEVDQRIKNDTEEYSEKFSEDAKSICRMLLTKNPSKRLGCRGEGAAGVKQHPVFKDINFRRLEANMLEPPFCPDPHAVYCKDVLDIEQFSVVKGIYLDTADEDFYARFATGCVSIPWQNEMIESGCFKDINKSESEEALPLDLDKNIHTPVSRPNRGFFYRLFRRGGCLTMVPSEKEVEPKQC

Set 1
Target: Mitogen-activated protein kinase 8 (MAPK8, Homo sapiens, UniProt P45983)
Chain of UniProt P45983 (whole entry, looked up): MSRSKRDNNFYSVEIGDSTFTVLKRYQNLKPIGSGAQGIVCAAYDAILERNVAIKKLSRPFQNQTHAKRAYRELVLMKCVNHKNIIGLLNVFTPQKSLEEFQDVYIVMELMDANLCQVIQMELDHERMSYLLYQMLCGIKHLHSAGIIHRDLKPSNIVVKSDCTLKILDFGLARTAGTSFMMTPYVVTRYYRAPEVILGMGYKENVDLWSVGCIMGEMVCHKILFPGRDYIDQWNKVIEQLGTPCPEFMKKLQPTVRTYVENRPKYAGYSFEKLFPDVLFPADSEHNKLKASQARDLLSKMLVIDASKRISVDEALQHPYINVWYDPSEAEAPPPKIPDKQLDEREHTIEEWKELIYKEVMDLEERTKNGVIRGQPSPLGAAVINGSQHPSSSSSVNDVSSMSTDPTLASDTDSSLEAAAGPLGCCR
Read-out: enzyme activity
Action: inhibitor
Tested at: 0.5 µM
Reference: control
`O=Nc1c(-c2c(O)[nH]c3ccccc23)[nH]c2ccccc12` has a remaining activity of 101%.
For `O=C1NC(=O)/C(=C/c2ccc3c(c2)OC(F)(F)O3)S1`, the remaining activity was 95.1%.
`CCN(CC)CCCCN1c2ccccc2Oc2ccc(Cl)cc21` gave a remaining activity of 89.7%.
For `C[C@@H](N)[C@H]1CC[C@H](C(=O)Nc2ccncc2)CC1`, the remaining activity was 97.1%.
`c1cc(-c2cnn3cc(-c4ccc(OCCN5CCCCC5)cc4)cnc23)ccn1` has a remaining activity of 91.5%.
`CC(C)n1cnc2c(Nc3cccc(Cl)c3)nc(NCCO)nc21` gave a remaining activity of 94.8%.
The remaining activity of `N#C/C(=C(/N)SC1C=CC=CC1)c1cccc(C(O)c2ccncc2)c1` (centres unmarked) is reported as 102%.
The remaining activity of `COc1cc2c(Nc3ccc(Br)cc3F)ncnc2cc1OCC1CCN(C)CC1` is reported as 93.7%.
The remaining activity of `O=C1c2ccccc2-c2nc3nnnn3nc21` is reported as 78.3%.
`CC(C)N(CCC(=O)c1ccc2ccccc2c1)Cc1ccccc1` gave a remaining activity of 88%.
With `NC(=O)c1cccc(-c2cc(Nc3ccc(OC(F)(F)F)cc3)ncn2)c1` the remaining activity was 90.3%.
`NC(=O)c1ccc(-c2nc(-c3ccc4c(c3)OCCO4)c(-c3ccccn3)[nH]2)cc1` gave a remaining activity of 97.4%.
`O=C(c1ccccc1)c1ccc(N2CCOCC2)cc1O` has a remaining activity of 99.5%.
The remaining activity of `CC(C)(C)c1nc2c3cc[nH]c(=O)c3c3cc(F)ccc3c2[nH]1` is reported as 73.7%.
For `O=c1c(-c2ccc(F)cc2)c(-c2ccncc2)[nH]n1-c1ccc(Cl)cc1`, the remaining activity was 90.2%.
The remaining activity of `CCCCc1c(-c2ccc(O)cc2)[nH]c2nccnc12` is reported as 81.9%.
For `Nc1nc(Nc2ccc(S(N)(=O)=O)cc2)nn1C(=S)Nc1c(F)cccc1F`, the remaining activity was 78.8%.
The remaining activity of `FC(F)(F)c1ccc(/C=C/c2nc(COc3ccc(CCCCn4ccnn4)cc3)co2)cc1` is reported as 105%.
The remaining activity of `Clc1ccc(Nc2nnc(Cc3ccncc3)c3ccccc23)cc1` is reported as 98.2%.
The remaining activity of `O=C(O)/C=C/c1cc(Br)c(Br)c(Br)c1Br` is reported as 86.8%.
The remaining activity of `CNc1cc2c(Nc3cccc(Br)c3)ncnc2cn1` is reported as 96.4%.

Set 2
Compound: O=C(Nc1ccccc1)Nc1cccc(Oc2ccc3nccn3n2)c1
Tested at: 1 µM
The remaining activity was 7.6% (Angiopoietin-1 receptor (TEK, Homo sapiens, UniProt Q02763)).
For Epithelial discoidin domain-containing receptor 1 (DDR1, Homo sapiens, UniProt Q08345): remaining activity read 2.2%.
The remaining activity was 31% (Serine/threonine-protein kinase DCLK3 (DCLK3, Homo sapiens, UniProt Q9C098)).
It gave 13% for remaining activity (Mitogen-activated protein kinase kinase kinase 19 (MAP3K19, Homo sapiens, UniProt Q56UN5)).
It gave 0.4% for remaining activity (Macrophage colony-stimulating factor 1 receptor (CSF1R, Homo sapiens, UniProt P07333)).
It gave 0% for remaining activity (Platelet-derived growth factor receptor beta (PDGFRB, Homo sapiens, UniProt P09619)).
Serine/threonine-protein kinase mTOR (MTOR, Homo sapiens, UniProt P42345); biochemical — remaining activity: 79%.
It gave 3.2% for remaining activity (Vascular endothelial growth factor receptor 1 (FLT1, Homo sapiens, UniProt P17948)).
For Platelet-derived growth factor receptor alpha (PDGFRA, Homo sapiens, UniProt P16234): remaining activity read 1.1%.
It gave 99% for remaining activity (Discoidin domain-containing receptor 2 (DDR2, Homo sapiens, UniProt Q16832)).
Mast/stem cell growth factor receptor Kit (KIT, Homo sapiens, UniProt P10721) — remaining activity: 0%.
Serine/threonine-protein kinase STK11 (STK11, Homo sapiens, UniProt Q15831) — remaining activity: 76%.
The remaining activity was 30% (cAMP-dependent protein kinase catalytic subunit beta (PRKACB, Homo sapiens, UniProt P22694)).
It gave 33% for remaining activity (Vascular endothelial growth factor receptor 3 (FLT4, Homo sapiens, UniProt P35916)).
For Cyclin-dependent kinase 8 (CDK8, Homo sapiens, UniProt P49336): remaining activity read 24%.
Citron Rho-interacting kinase (CIT, Homo sapiens, UniProt O14578) — remaining activity: 0%.

Set 3
Target: Calcium/calmodulin-dependent protein kinase type II subunit alpha (CAMK2A, Homo sapiens, UniProt Q9UQM7)
Chain of UniProt Q9UQM7 (whole entry, looked up): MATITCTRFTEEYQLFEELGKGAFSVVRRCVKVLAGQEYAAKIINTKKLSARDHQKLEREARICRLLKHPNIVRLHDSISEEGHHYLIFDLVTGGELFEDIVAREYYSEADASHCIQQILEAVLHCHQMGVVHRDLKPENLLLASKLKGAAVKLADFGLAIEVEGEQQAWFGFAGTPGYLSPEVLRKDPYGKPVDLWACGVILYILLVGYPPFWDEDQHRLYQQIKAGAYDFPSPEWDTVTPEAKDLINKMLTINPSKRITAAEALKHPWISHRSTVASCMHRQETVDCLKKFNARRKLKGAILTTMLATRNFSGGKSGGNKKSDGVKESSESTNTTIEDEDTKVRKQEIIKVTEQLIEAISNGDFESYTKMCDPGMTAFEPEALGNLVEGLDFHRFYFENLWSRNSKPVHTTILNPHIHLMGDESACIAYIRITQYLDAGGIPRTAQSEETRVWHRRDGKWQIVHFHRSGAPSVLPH
Read-out: enzyme activity
Action: inhibitor
Tested at: 10 µM
The inhibition of `COc1cc(O)c2c(=O)c(OC)c(-c3ccc(O)c(OC)c3)oc2c1` is reported as 4%.
The inhibition of `Oc1ccc2c(c1)OC[C@]1(O)Cc3cc(O)c(O)cc3[C@H]21` is reported as -10%.
With `O=c1oc2cc(O)ccc2c2cc(O)c(O)cc12` the inhibition was -98%.
For `CC(=O)O[C@@H]1[C@@H](OC(C)=O)[C@@H](O)[C@H](Oc2c(-c3ccc(O)cc3)oc3cc(O)cc(O)c3c2=O)O[C@H]1C`, the inhibition was -5%.
With `C=C1[C@H](CO)[C@@H](O)C[C@@H]1n1cnc2c(=O)[nH]c(N)nc21` the inhibition was -7%.
With `CN1CCN(c2c(F)cc3c(=O)c(C(=O)O)cn4c3c2SCC4)CC1` the inhibition was -6%.
The inhibition of `C=C(C)[C@@H]1CC[C@]2(C=O)CC[C@]3(C)[C@H](CC[C@@H]4[C@@]5(C)CC[C@H](O)C(C)(C)[C@@H]5CC[C@]43C)[C@@H]12` is reported as -2%.
The inhibition of `CC(=O)OCC(=O)[C@@]1(O)CC[C@H]2[C@@H]3CCC4=CC(=O)C=C[C@]4(C)[C@H]3C(=O)C[C@@]21C` is reported as 2%.
For `Cc1cn([C@@H]2O[C@H](CO)[C@@H](O)[C@H]2O)c(=O)nc1N`, the inhibition was 5%.
`CC(C)(Oc1ccc(C(=O)c2ccc(Cl)cc2)cc1)C(=O)O` gave an inhibition of 0.18% and 0%.
The inhibition of `C[C@@H]1C[C@H]2O[C@@]3(O[C@@H]2C(C)(C)O)[C@H](O)[C@@]2(C)[C@@H]4CC[C@H]5C(C)(C)[C@@H](O)CC[C@@]56C[C@@]46CC[C@]2(C)[C@@H]13` is reported as -9%.
`CC(C)=CCC[C@]1(C)CC[C@]2(C)[C@H]3CC[C@@]4(C)[C@@H](CCC(=O)[C@@H]4C)[C@]3(C)CC[C@@]2(C)C1` gave an inhibition of 23%.

Set 4
Structure (SMILES): Cn1cc(Cl)c2c(Oc3c(F)cc(Nc4cc(Cl)nc(N)n4)cc3F)ccnc21
Method: competition with immobilised ligand
Tested at: 0.1 µM
The remaining binding was 93% (Macrophage colony-stimulating factor 1 receptor (CSF1R, Homo sapiens, UniProt P07333); cell-free assay).
Serine/threonine-protein kinase TBK1 (TBK1, Homo sapiens, UniProt Q9UHD2); cell-free assay — remaining binding: 100%.
For G protein-coupled receptor kinase 4 (GRK4, Homo sapiens, UniProt P32298); cell-free assay: remaining binding read 100%.
The remaining binding was 100% (Serine/threonine-protein kinase tousled-like 2 (TLK2, Homo sapiens, UniProt Q86UE8); cell-free assay).
Dual specificity protein kinase TTK (TTK, Homo sapiens, UniProt P33981); cell-free assay — remaining binding: 100%.
For Inhibitor of nuclear factor kappa-B kinase subunit epsilon (IKBKE, Homo sapiens, UniProt Q14164); cell-free assay: remaining binding read 100%.
For Ribosomal protein S6 kinase beta-1 (RPS6KB1, Homo sapiens, UniProt P23443); cell-free assay: remaining binding read 84%.
It gave 100% for remaining binding (Serine/threonine-protein kinase MARK2 (MARK2, Homo sapiens, UniProt Q7KZI7); cell-free assay).
The remaining binding was 93% (Activin receptor type-1-like (ACVRL1, Homo sapiens, UniProt P37023); binding).
It gave 76% for remaining binding (Serine/threonine-protein kinase/endoribonuclease IRE1 (ERN1, Homo sapiens, UniProt O75460); cell-free assay).
The remaining binding was 100% (Cyclin-dependent kinase 16 (CDK16, Homo sapiens, UniProt Q00536); cell-free assay).
The remaining binding was 100% (Serine/threonine-protein kinase 32C (STK32C, Homo sapiens, UniProt Q86UX6); cell-free assay).
Cyclin-dependent kinase-like 3 (CDKL3, Homo sapiens, UniProt Q8IVW4); cell-free assay — remaining binding: 96%.
The remaining binding was 99% (Fibroblast growth factor receptor 3 (FGFR3, Homo sapiens, UniProt P22607); cell-free assay).
The remaining binding was 100% (Receptor-type tyrosine-protein kinase FLT3 (FLT3, Homo sapiens, UniProt P36888); cell-free assay).
It gave 100% for remaining binding (Dual specificity testis-specific protein kinase 1 (TESK1, Homo sapiens, UniProt Q15569); cell-free assay).
Tyrosine-protein kinase ABL1, phosphorylated (ABL1, Homo sapiens, UniProt P00519); cell-free assay — remaining binding: 97%.
It gave 66% for remaining binding (Serine/threonine-protein kinase Nek10 (NEK10, Homo sapiens, UniProt Q6ZWH5); cell-free assay).
It gave 100% for remaining binding (Calcium/calmodulin-dependent protein kinase type II subunit gamma (CAMK2G, Homo sapiens, UniProt Q13555); cell-free assay).
It gave 100% for remaining binding (STE20/SPS1-related proline-alanine-rich protein kinase (STK39, Homo sapiens, UniProt Q9UEW8); cell-free assay).
Serine/threonine-protein kinase RIO3 (RIOK3, Homo sapiens, UniProt O14730); cell-free assay — remaining binding: 93%.
The remaining binding was 83% (cGMP-dependent protein kinase 1 (PRKG1, Homo sapiens, UniProt Q13976); cell-free assay).

Repeated from above (set 3):
The inhibition of `C=C(C)[C@@H]1CC[C@]2(C=O)CC[C@]3(C)[C@H](CC[C@@H]4[C@@]5(C)CC[C@H](O)C(C)(C)[C@@H]5CC[C@]43C)[C@@H]12` is reported as -2%.
With `CN1CCN(c2c(F)cc3c(=O)c(C(=O)O)cn4c3c2SCC4)CC1` the inhibition was -6%.
With `O=c1oc2cc(O)ccc2c2cc(O)c(O)cc12` the inhibition was -98%.
For `Cc1cn([C@@H]2O[C@H](CO)[C@@H](O)[C@H]2O)c(=O)nc1N`, the inhibition was 5%.
